# Published values of several laboratories.
# Compare with care: the assays were run in different laboratories. “And” joins repeats or separate records; there may be more than shown. ± marks the error that the study gave.
SMILES,target or system,test,system,conditions,how to read,quantity,result
COC1OC(C)C(OC2OC(C)C(OS(=O)(=O)O)C(OC3OC(C)C(OC4OC(C)C(OS(=O)(=O)O)C(OS(=O)(=O)O)C4OS(=O)(=O)O)C(OS(=O)(=O)O)C3OS(=O)(=O)O)C2OS(=O)(=O)O)C(OS(=O)(=O)O)C1OS(=O)(=O)O (stereo not drawn),,,human plasma,128 µg/mL,,activated partial thromboplastin time,32.3 ± 0.6 s
COC1CN([C@H]2CC[C@H]([C@@]3(C)Oc4c(Cl)cc(C(=O)NCc5c(SC)cc(C)[nH]c5=O)c(C)c4O3)CC2)C1,,"RNA-seq, item: SLC6A9","human, whole blood","dose not given, 24 h",reference: pretreatment baseline,log2 fold change,1.77
CNS(=O)(=O)Nc1nccc(Cc2c(C)c3ccc(Oc4ncccc4F)cc3oc2=O)c1F,NCI-H841,cell viability,,7 days,,IC50,> 1000 nM
COc1cc(O)ccc1CCC(c1ccc(O)cc1)c1cc2c(c(C)c1O)OC(c1ccc(O)cc1)CC2 (mixture of isomers),,,human blood,"10 µM, added: A23187",,TXB2 level,767 ± 254 pg/mL
CN1CCC[C@]1(C)/C=C/S(=O)(=O)NC(=O)Nc1c2c(cc3c1CCC3)CCC2,,,"human, whole blood ex vivo","50 mg single dose, 6 h, single ascending dose, added: LPS and ATP",,IL-18 inhibition,119%
Cc1nn(-c2cccc(N)c2)c(=O)c2cnc(Nc3ccc(N4CCNCC4)cc3)nc12,"CAMK1 (Homo sapiens, UniProt Q14012)","kinase activity, inhibitor, SelectScreen kinase profiling",,,,IC50,1700 nM
C=CC(=O)Nc1cccc(Cn2ncc3cnc(Nc4cnn(CCOC)c4)nc32)c1,LATS2 human,"binding, KINOMEscan",,100 nM,lower = stronger binding,percent of control,83%
Cc1ncsc1-c1ccc(C(C)NC(=O)C2CC(O)CN2C(=O)C(NC(=O)CCCCCCCCCCN2CCCC(Nc3ncc(Cl)c(Nc4ccccc4S(=O)(=O)C(C)C)n3)C2)C(C)(C)C)cc1 (stereo not drawn),22Rv1,"RNA-seq, item: TAF4B mRNA",,concentration not given,reference: DMSO,log2 fold change,-1.13
COC1OC(C)C(OC2OC(C)C(OS(=O)(=O)O)C(OC3OC(C)C(OS(=O)(=O)O)C(OS(=O)(=O)O)C3O)C2O)C(OS(=O)(=O)O)C1O (stereo not drawn),,,human plasma,128 µg/mL,,activated partial thromboplastin time,34 ± 0.6 s
C[S@@](=N)(=O)c1ccc(C(=O)Nc2cc(-c3ccc(F)cc3)ccc2N)cc1,,,"patients, STK11-mutant tumours, tumour biopsy","80 and 120 mg, added: pembrolizumab",reference: pretreatment,PD-L1 TPS,increased
Nc1ncc(-c2cc(-c3cnn(CC(F)(F)F)c3)ncc2F)nc1C(=O)NC1CNCC(F)C1 (stereo not drawn),PDPK1,KINOMEscan,,1 µM,reference: DMSO control,remaining binding,99%
COC1OC(C)C(OC2OC(C)C(O)C(OC3OC(C)C(OC4OC(C)C(O)C(OC5OC(C)C(OC6OC(C)C(O)C(OS(=O)(=O)O)C6OS(=O)(=O)O)C(OS(=O)(=O)O)C5OS(=O)(=O)O)C4OS(=O)(=O)O)C(OS(=O)(=O)O)C3OS(=O)(=O)O)C2OS(=O)(=O)O)C(OS(=O)(=O)O)C1OS(=O)(=O)O (stereo not drawn),,,human plasma,32 µg/mL,,activated partial thromboplastin time,53.2 s and 55.9 s and 54.5 s
COCC1CN(C2CCN(c3cc(OC)c(Nc4ncc(Br)c(Nc5ccc6c(c5P(C)(C)=O)OCCO6)n4)cc3C)CC2)C1,,RECIST 1.1,advanced EGFR-mutant NSCLC patients,240 mg once daily,,not evaluable patients,0%
CC(C)C[C@H](NC(=O)CNC(=O)[C@H](CCC(N)=O)NC(=O)[C@H](CC(C)C)NC(=O)[C@H](CC(C)C)NC(=O)[C@H](CCCNC(=N)N)NC(=O)[C@H](CCC(N)=O)NC(=O)[C@H](CC(C)C)NC(=O)[C@H](CCCNC(=N)N)NC(=O)[C@H](C)NC(=O)CNC(=O)[C@H](CCC(=O)O)NC(=O)[C@H](CCCNC(=N)N)NC(=O)[C@H](CC(C)C)NC(=O)[C@H](CCCNC(=N)N)NC(=O)[C@H](CO)NC(=O)[C@H](CC(C)C)NC(=O)[C@H](CCC(=O)O)NC(=O)[C@H](CO)NC(=O)[C@@H](NC(=O)[C@H](Cc1ccccc1)NC(=O)[C@@H](NC(=O)CNC(=O)[C@H](CC(=O)O)NC(=O)C(C)(C)NC(=O)[C@@H](N)Cc1c[nH]cn1)[C@@H](C)O)[C@@H](C)O)C(=O)N[C@@H](CC(C)C)C(=O)N[C@@H](CCC(N)=O)C(=O)NCC(=O)N[C@@H](CC(C)C)C(=O)N[C@H](C(=O)NCC(=O)N[C@@H](CCCCNC(=O)COCCOCCNC(=O)COCCOCCNC(=O)CC[C@H](NC(=O)CCCCCCCCCCCCCCCCC(=O)O)C(=O)O)C(N)=O)C(C)C,,quantitative magnetic resonance,DIO C57BL/6J mice,"sc, 300 nmol/kg twice daily, day 8",reference: vehicle,fat mass loss,6.6%
Nc1nc2cc(CC[C@H]3C[C@@H](n4ccc5c(N)ncnc54)[C@H](O)[C@@H]3O)ccc2cc1Br,,,"NCI-H1048 xenograft, mouse","3.0 mg/kg/day, day 28",,%ΔTGI,75.6%

# Some of these lines once more:
SMILES,target or system,test,system,conditions,how to read,quantity,result
Cc1nn(-c2cccc(N)c2)c(=O)c2cnc(Nc3ccc(N4CCNCC4)cc3)nc12,"CAMK1 (Homo sapiens, UniProt Q14012)","kinase activity, inhibitor, SelectScreen kinase profiling",,,,IC50,1700 nM
COC1OC(C)C(OC2OC(C)C(OS(=O)(=O)O)C(OC3OC(C)C(OC4OC(C)C(OS(=O)(=O)O)C(OS(=O)(=O)O)C4OS(=O)(=O)O)C(OS(=O)(=O)O)C3OS(=O)(=O)O)C2OS(=O)(=O)O)C(OS(=O)(=O)O)C1OS(=O)(=O)O (stereo not drawn),,,human plasma,128 µg/mL,,activated partial thromboplastin time,32.3 ± 0.6 s
